Published values collected from several papers.
Parts stem from different laboratories: compare values within a part only. Substitutions count along the parent as printed.

Set 1
Target: Sal-like protein 4, full length isoform A (SALL4, Homo sapiens, UniProt Q9UJQ4, residues 1-1053)
UniProt Q9UJQ4, sequence (whole entry, looked up): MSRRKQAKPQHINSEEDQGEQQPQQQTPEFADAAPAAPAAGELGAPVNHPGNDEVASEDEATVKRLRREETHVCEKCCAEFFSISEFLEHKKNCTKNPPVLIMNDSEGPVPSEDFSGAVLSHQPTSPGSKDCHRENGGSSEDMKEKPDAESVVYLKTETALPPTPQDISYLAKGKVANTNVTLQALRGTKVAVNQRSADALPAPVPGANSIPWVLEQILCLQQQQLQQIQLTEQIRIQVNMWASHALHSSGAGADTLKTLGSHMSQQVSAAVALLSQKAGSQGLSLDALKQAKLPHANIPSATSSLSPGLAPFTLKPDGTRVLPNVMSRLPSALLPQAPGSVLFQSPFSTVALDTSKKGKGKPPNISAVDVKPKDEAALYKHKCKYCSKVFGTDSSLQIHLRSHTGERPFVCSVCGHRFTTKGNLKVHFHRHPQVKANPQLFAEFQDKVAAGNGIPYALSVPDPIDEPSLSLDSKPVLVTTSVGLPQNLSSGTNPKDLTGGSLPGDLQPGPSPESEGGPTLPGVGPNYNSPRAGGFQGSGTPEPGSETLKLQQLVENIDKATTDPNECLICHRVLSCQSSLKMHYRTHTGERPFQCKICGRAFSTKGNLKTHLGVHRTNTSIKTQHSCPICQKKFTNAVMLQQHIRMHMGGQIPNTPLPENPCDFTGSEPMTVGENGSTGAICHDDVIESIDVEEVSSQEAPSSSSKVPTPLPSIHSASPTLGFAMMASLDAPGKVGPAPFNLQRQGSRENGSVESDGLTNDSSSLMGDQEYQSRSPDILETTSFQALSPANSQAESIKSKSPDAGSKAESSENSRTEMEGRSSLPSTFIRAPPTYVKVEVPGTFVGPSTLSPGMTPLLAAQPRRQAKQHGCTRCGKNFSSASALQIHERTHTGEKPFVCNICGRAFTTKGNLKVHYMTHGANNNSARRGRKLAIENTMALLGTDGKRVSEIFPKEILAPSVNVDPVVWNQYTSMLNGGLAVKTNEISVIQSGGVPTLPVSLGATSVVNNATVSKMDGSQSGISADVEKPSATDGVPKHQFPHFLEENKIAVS
Technique: universal PBM
Molecule type: double-stranded DNA, one strand shown
Matrix: in vitro
Concentration: 600 nM
Notes: 8-mer, flanks averaged, mean of replicates
Direction: higher = stronger binding
Endpoint: E-score
CAGATCTA: 0.0565
GGGTTCAC: -0.228
GGCCCACA: -0.141
GGGCTACC: -0.418
CCCGGCGA: -0.399
CATAACAG: 0.127
AAATCATT: 0.301
GTAGTGGA: 0.0694
CCAATCCA: -0.256
AGAGGCGC: -0.296
ATGCTTTA: 0.144
CCTTTGCC: -0.0635
GAAATTTC: -0.07
GGCGCTCA: -0.219
AGAATGCA: 0.108
CTTATTAA: 0.372

Set 2
Substance: PhoQ, residues 284 288 289 292 302 303 SSLVEF
Technique: Sort-seq
Measured: YFP reporter
Matrix: E. coli
Notes: PhoQ-PhoP variant library
With: 10 µM Mg2+
Relative to: high Mg2+ state
Direction: higher = stronger signaling
Endpoint: fold induction
PhoP, residues 12 14 15 18 19 VGHWL (Escherichia coli, UniProt P23836): 7.67
PhoP, residues 12 14 15 18 19 LHHYF (Escherichia coli, UniProt P23836): 15
PhoP, residues 12 14 15 18 19 NFFVT (Escherichia coli, UniProt P23836): 6.26
PhoP, residues 12 14 15 18 19 TPWTL (Escherichia coli, UniProt P23836): 1.74

Set 3
Target: ABI1, truncated, D143A, DHFR fusion (Arabidopsis thaliana)
Technique: DHFR PCA, deep sequencing
Matrix: yeast
Notes: methotrexate growth selection, single substitutions
With: (+)-ABA 0.39 µM
Relative to: wild-type fitted maximum
Direction: higher = stronger binding
Endpoint: relative binding score
Parent: PYL1, truncated, DHFR fusion (Arabidopsis thaliana); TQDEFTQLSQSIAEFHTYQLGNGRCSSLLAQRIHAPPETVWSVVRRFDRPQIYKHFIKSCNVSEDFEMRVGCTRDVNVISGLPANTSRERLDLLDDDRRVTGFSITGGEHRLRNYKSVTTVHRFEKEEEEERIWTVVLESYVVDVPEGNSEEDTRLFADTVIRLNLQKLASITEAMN
R111E: -12.1%
M68L: 74.7%
S63I: 19.9%
D75A: 16.6%
Y115T: 3.32%
V78W: 81.1%
R45Q: -19.6%
V70I: 43.5%
S87Q: 48.7%
C60R: 5.4%
Y141K: -20%
Q31L: 6.96%
H110M: 24.4%
T106S: -3.6%
K54L: -2.24%
S59Y: -0.924%
S80R: -2.29%
Q167M: 37.6%
N61C: 48.5%
F15Y: 40.1%
F15T: -3.87%
E109Q: 17.3%
R24F: -2.78%
R49P: 5.2%
W134C: 57.2%

Set 4
Target: Histone acetyltransferase KAT6A, winged helix 1, GST fusion (KAT6A, Homo sapiens, UniProt Q92794, residues 1-85)
Technique: protein binding microarray
Molecule type: double-stranded DNA, one strand shown
Matrix: in vitro
Concentration: not given
Notes: 8-mer, flanks averaged, mean of 2 arrays, mostly near background
Relative to: not given
Direction: higher = stronger binding
Endpoint: E-score
Construct (chain): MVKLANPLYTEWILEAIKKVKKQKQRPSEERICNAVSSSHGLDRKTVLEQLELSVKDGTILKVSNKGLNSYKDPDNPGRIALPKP
ATCGTAAA: -0.203
ATCTTTTC: -0.11
TAGCTGCA: -0.0175
CGCCAAAC: 0.106
GGCCGCCC: 0.384
AGTGTAGC: 0.0201
AGTCTGGG: -0.405
CCCGTCTA: 0.187
ATTTCGAA: -0.229
CACTATAC: -0.0687
ATATGTTA: -0.171
ACCCGCAA: 0.212
CAACCCGG: 0.217
GACCCCGA: -0.00203
CAGATTAC: -0.135
CATGGACG: 0.0427
CTGGCACC: -0.154
AAGCCCCA: -0.341
CTTAAGCA: 0.0451
ATGGGACC: -0.0952
CAGAAGTC: -0.238
CCGGATCA: 0.116
GGTTAGAC: -0.0779

Some of these lines once more (set 3):
N61C: 48.5%
F15Y: 40.1%
F15T: -3.87%
E109Q: 17.3%
